Experimental data pooled from the literature.
Each numbered part is a random draw from the data of one study; scales do not carry over between parts.

Study 1 — method: protein binding microarray; molecule type: double-stranded DNA, one strand shown; sample: in vitro; tested at: not given; reference: not given; reading: higher = stronger binding
Target: Histone acetyltransferase KAT6A, winged helix 2, GST fusion (KAT6A, Homo sapiens, UniProt Q92794, residues 85-181)
Notes: 8-mer, flanks averaged, mean of 2 arrays, mostly near background
Construct (chain): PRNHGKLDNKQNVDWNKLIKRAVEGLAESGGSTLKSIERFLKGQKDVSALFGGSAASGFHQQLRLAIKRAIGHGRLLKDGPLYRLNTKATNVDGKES
`CGACAGAC` has an E-score of -0.0397.
The E-score of `CGCCGGCG` is reported as 0.296.
With `ACAGCAAA` the E-score was 0.187.
With `GCAAGAAC` the E-score was 0.111.
The E-score of `CCTTTAGC` is reported as 0.106.

Study 2 — method: universal PBM; molecule type: double-stranded DNA, one strand shown; sample: in vitro; tested at: 600 nM; reading: higher = stronger binding
Target: Sal-like protein 4, full length isoform A (SALL4, Homo sapiens, UniProt Q9UJQ4, residues 1-1053)
Chain of UniProt Q9UJQ4 (whole entry, looked up): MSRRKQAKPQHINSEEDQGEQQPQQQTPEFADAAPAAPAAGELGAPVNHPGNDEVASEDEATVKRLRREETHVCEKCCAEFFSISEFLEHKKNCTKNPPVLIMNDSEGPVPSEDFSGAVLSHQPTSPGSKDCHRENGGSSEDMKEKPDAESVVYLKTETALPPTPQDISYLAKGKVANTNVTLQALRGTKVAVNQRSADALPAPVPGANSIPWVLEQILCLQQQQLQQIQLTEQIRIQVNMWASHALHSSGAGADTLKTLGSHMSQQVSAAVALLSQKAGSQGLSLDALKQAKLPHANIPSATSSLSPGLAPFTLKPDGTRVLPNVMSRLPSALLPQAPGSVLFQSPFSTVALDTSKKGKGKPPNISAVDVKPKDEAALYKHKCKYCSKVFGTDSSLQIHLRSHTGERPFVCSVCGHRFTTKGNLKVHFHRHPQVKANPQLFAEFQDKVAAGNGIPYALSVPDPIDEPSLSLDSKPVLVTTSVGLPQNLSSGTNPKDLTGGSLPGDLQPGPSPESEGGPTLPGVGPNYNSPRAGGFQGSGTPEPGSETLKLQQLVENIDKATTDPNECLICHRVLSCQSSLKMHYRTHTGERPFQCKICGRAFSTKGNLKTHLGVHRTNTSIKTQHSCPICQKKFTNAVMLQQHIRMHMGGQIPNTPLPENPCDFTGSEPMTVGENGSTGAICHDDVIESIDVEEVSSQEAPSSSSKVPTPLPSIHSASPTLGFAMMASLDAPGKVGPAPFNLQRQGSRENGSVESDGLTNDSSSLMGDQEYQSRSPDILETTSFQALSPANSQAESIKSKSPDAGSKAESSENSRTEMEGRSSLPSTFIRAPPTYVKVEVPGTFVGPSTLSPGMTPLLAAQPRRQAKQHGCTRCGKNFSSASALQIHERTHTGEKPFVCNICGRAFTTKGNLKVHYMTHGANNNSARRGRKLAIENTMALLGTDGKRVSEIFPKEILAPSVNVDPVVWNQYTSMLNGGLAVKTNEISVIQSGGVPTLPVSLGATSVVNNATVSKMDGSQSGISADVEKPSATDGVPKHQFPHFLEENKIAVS
Notes: 8-mer, flanks averaged, mean of replicates
With `AAAAGTGA` the E-score was 0.258.
`TCGAGCAA` has an E-score of -0.0536.
With `AGACAACC` the E-score was -0.07.
For `ATGTGTGA`, the E-score was 0.0924.

Study 3 — method: protein-binding microarray; molecule type: double-stranded DNA, one strand shown; sample: in vitro; tested at: 2200 nM top; notes: 60-bp whole probe; with: salmon DNA 0.4 mg/ml; reference: random background probes; reading: higher = stronger binding; all sequences stand within: GCCTAGCAC … GTCTTGATTCGCTTGACGCTGCTG
Target: Interferon regulatory factor 7, full length, phosphomimetic (IRF7, Homo sapiens, UniProt Q92985, residues 1-503, S471D/S472D/S475D/S476D/S477D/S483D/S484D/S487D)
Construct (chain): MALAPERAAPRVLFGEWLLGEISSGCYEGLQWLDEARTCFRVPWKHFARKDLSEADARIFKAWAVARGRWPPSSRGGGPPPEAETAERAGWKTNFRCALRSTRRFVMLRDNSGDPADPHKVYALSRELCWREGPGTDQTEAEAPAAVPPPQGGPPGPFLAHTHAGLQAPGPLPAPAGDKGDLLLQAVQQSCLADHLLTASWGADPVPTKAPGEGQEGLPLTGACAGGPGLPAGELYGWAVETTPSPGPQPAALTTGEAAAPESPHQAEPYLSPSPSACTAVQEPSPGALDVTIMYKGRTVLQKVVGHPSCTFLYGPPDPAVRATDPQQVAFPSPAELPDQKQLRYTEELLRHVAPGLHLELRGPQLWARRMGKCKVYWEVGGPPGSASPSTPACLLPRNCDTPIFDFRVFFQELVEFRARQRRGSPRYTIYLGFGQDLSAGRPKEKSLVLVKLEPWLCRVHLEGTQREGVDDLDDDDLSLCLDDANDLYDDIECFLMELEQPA
For `GACGAACTGGGGAATCGAGACGTGCTA`, “fitted relative affinity” read 0.0242 z-score.
Under “fitted relative affinity”, `GACGGACTGGGTTTAGGGACGTGCTAG` is recorded as -0.608 z-score.
For `TCAGCTTCCTCTTTTTTACTGTGCTAG`, “fitted relative affinity” read 1.92 z-score.
Under “fitted relative affinity”, `TTAGTTTCCGGTTTCGGTTAGTGCTAG` is recorded as 12.7 z-score.
`GACGGTATCGGTCTCTGGACGTGCTAG`: “fitted relative affinity” 0.537 z-score.
For `TTTTTTTCCTAATTGAACCCGTGCTAG`, “fitted relative affinity” read 1.65 z-score.
For `CCCTGAGTCCCTTGGGCCTTGTGCTAG`, “fitted relative affinity” read -0.844 z-score.

Single results of other studies
`PhoQ, residues 284 288 289 292 302 303 ASSHFY` has a fold induction of 9.31 (PhoP, residues 12 14 15 18 19 IFFTR (Escherichia coli, UniProt P23836); Sort-seq, item: YFP reporter; E. coli; PhoQ-PhoP variant library, with: 10 µM Mg2+; reference: high Mg2+ state, higher = stronger signaling).

A few entries again (study 3):
For `TTTTTTTCCTAATTGAACCCGTGCTAG`, “fitted relative affinity” read 1.65 z-score.
`GACGGTATCGGTCTCTGGACGTGCTAG`: “fitted relative affinity” 0.537 z-score.
